Results of several laboratories.
Each line is one published result; not all experiments were run side by side.
Target: Cytochrome P450 2D6 (CYP2D6, Homo sapiens, UniProt P10635)
Chain of UniProt P10635 (whole entry, looked up): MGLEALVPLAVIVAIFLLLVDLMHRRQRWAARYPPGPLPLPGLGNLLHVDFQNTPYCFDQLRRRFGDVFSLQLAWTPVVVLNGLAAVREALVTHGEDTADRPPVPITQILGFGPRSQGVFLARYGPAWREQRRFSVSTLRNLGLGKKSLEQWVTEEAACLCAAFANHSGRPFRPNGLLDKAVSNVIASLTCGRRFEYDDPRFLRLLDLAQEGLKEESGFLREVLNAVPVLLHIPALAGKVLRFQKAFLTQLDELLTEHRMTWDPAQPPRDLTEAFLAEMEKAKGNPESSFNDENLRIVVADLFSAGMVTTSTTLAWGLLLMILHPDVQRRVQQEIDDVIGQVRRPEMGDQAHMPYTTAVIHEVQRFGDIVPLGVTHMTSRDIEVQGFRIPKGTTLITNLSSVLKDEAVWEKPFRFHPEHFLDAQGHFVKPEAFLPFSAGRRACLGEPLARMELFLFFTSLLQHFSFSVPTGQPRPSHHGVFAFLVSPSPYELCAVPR

`C1CCC(C(CC2CCCCN2)C2CCCCC2)CC1` (centres unmarked): “ATP level and LDH release” “decreased” (HepG2 overexpressing CYP2D6; 5 to 10 µM, 24 h; reference: empty vector control).
With `COc1cc(OC)c(Cl)c(CCc2cnc3ccn(S(=O)(=O)c4c[nH]cn4)c3n2)c1Cl` the inhibition was 78% (enzyme activity, inhibitor; human, liver microsomes; 10 µM, 20 min, pH 7.4).
With `CC1=N[C@]2(C(=O)CO)[C@@H](C[C@H]3[C@@H]4C[C@@H](O)C5=CC(=O)C=C[C@]5(C)[C@H]4[C@@H](O)C[C@@]32C)O1` the IC50 was > 50 µM (enzyme activity, inhibitor; human, liver microsomes; with preincubation).
For `Cc1ncccc1NC(=O)c1ccc2c(c1)CC[C@@H]1C[C@@](O)(C(F)(F)F)CC[C@@]21Cc1ccccc1`, the kinact was 0.000217 s⁻¹ (inhibitor, time-dependent inhibition, measured: dextrorphan formation; pooled human liver microsomes; together with: dextromethorphan 14.4 µM).
`Cc1noc(C)c1Cn1cc(N2C(=O)N(Cc3cccc(O)c3)C(C)(C)C2=O)cn1` has an inhibition of 3% (enzyme activity, inhibitor, fluorescence; Sf9; 10 µM).
For `COC(=O)/C=C/C(=O)O`, “maximum reversible inhibition” read 30% (human liver microsomes; up to 750 µM, 10 min, together with: bufuralol).
With `Cc1noc(C)c1Cn1cc(N2C(=O)CN(Cc3cccc(O)c3)C2=O)cn1` the inhibition was 8% (enzyme activity, inhibitor, fluorescence; Sf9; 10 µM).
`COc1cc(CCc2cnc3ccn(S(=O)(=O)c4c[nH]cn4)c3n2)cc(OC)c1` gave an inhibition of 90% (enzyme activity, inhibitor; human, liver microsomes; 10 µM, 20 min, pH 7.4).
